Measured values gathered from unrelated publications.
A part holds a random share of what one study measured. Several values in a cell are separate wells, animals, samples, runs or records.
UniProt O75747, sequence (whole entry, looked up): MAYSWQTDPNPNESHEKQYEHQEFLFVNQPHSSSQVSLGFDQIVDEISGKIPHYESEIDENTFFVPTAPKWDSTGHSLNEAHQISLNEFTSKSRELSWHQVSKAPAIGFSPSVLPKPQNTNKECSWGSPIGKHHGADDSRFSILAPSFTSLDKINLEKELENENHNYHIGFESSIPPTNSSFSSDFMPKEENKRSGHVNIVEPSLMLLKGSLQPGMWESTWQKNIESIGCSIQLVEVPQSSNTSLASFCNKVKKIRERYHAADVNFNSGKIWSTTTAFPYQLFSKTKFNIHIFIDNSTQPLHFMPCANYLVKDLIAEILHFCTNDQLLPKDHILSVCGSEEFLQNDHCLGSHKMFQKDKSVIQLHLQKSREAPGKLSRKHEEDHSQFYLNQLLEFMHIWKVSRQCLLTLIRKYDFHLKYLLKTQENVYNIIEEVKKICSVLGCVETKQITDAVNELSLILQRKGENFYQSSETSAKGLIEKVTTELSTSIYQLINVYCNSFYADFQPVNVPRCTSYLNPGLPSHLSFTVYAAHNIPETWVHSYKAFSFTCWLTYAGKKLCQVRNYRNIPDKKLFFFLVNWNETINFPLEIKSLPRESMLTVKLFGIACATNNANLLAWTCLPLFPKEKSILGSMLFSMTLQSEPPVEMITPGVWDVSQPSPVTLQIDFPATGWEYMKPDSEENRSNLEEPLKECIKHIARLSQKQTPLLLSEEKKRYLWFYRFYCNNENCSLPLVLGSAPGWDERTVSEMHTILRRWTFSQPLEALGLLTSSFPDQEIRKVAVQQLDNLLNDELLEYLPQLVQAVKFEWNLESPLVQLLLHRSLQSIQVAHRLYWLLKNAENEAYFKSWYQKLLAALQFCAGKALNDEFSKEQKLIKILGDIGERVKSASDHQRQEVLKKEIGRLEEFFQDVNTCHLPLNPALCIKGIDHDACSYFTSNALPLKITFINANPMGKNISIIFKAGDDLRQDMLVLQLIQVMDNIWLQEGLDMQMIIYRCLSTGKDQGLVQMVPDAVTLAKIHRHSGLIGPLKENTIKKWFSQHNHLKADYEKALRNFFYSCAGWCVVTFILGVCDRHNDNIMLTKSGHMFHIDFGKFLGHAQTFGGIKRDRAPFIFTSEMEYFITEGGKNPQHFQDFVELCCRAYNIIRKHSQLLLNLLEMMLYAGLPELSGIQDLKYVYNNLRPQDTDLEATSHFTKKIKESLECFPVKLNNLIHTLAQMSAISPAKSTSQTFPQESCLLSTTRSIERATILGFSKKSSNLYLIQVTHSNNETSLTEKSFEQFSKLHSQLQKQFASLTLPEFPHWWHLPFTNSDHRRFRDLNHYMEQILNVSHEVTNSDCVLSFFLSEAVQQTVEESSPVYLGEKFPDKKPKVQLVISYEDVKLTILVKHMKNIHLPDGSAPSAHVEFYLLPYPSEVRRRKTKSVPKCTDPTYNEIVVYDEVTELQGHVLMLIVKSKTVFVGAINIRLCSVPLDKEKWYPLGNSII
UniProt O15111, sequence (whole entry, looked up): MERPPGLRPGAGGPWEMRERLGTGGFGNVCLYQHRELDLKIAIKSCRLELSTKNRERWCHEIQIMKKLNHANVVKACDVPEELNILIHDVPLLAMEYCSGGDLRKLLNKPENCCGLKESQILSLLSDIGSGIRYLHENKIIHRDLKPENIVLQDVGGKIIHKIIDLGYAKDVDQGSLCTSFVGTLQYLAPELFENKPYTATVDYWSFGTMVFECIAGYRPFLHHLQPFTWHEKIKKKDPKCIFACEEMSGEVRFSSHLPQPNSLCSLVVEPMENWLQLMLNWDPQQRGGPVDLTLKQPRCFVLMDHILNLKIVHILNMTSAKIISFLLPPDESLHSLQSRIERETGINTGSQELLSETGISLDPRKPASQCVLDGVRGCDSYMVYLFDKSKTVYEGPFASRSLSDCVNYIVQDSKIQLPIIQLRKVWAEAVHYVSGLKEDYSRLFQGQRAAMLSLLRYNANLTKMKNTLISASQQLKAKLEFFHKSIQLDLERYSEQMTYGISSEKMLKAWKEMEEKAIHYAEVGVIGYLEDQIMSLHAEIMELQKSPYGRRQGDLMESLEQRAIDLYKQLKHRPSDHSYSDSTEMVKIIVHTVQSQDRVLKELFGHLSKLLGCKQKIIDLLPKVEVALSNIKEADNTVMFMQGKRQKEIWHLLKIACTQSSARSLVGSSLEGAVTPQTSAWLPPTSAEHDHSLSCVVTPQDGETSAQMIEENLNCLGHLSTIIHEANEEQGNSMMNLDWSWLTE
UniProt Q15569, sequence (whole entry, looked up): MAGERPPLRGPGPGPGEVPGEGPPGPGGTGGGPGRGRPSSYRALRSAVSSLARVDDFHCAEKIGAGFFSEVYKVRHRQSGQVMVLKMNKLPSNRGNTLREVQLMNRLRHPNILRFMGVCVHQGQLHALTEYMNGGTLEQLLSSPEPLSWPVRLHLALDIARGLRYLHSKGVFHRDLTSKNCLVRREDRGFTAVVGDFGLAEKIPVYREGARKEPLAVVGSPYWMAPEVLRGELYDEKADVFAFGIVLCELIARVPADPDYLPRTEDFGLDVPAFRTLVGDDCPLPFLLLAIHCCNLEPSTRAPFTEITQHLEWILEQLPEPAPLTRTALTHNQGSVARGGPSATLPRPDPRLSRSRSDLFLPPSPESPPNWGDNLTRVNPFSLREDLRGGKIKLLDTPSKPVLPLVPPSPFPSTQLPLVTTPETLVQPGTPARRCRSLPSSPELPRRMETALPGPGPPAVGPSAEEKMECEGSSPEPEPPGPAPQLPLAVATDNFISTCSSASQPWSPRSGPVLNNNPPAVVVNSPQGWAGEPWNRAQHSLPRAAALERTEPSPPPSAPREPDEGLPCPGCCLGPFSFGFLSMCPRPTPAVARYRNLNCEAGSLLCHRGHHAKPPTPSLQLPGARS
UniProt Q13131, sequence (whole entry, looked up): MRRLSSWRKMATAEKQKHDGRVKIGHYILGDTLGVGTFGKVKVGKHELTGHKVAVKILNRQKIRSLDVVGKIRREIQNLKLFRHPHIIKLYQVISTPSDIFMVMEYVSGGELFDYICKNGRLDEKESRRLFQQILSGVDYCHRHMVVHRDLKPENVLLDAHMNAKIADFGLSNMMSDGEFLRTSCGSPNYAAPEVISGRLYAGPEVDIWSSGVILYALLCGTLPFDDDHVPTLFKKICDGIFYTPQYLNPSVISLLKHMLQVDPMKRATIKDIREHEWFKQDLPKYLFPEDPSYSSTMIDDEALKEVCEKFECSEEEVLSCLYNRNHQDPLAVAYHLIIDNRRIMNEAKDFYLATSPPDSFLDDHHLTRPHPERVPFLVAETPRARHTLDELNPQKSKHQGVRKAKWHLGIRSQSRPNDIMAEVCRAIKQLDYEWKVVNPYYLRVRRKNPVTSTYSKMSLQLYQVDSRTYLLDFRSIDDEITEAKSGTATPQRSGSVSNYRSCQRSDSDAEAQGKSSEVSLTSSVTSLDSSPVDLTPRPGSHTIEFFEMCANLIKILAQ
UniProt P19525, sequence (whole entry, looked up): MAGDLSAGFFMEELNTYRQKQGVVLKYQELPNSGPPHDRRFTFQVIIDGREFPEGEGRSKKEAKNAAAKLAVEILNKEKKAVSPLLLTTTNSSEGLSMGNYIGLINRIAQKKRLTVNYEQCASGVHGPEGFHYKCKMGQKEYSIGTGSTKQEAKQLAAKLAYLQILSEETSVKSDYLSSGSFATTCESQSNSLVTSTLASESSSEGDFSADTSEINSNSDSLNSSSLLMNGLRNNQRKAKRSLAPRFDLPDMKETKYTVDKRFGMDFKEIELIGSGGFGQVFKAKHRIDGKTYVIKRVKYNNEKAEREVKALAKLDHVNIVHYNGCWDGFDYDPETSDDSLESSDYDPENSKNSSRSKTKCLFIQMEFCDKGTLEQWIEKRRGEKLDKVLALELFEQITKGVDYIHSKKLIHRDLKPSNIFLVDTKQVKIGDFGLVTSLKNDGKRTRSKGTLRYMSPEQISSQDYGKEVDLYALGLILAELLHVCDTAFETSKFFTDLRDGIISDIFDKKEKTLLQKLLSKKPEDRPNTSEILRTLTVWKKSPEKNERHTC
UniProt P32298, sequence (whole entry, looked up): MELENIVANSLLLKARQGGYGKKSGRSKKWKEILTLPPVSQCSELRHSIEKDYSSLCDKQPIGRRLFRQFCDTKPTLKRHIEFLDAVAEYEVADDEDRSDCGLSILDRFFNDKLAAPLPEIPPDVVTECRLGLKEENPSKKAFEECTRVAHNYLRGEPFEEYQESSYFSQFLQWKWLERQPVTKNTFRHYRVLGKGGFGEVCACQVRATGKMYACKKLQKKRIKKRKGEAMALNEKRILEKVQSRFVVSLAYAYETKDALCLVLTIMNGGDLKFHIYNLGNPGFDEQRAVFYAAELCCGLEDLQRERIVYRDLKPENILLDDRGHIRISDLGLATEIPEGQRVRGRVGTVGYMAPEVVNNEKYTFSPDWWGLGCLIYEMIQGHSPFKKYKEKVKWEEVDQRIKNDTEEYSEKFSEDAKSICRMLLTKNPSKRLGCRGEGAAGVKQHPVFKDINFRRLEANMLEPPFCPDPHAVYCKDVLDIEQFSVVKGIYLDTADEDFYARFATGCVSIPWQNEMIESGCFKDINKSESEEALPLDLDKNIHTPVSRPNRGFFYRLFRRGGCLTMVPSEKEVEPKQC

Series 1
SMILES: CCN1/C(=C/C=C2\CCCC(/C=C/C3=[N+](CC)c4ccccc4C3(C)C)=C2NCCCCCCCCN2CCC(Nc3nc4ccccc4n3Cc3ccc(F)cc3)CC2)C(C)(C)c2ccccc21
Cell line: U-87 MG
Tested at: concentration not given
Reference: DMSO
assay | log2 fold change
refers to: GADD45A mRNA | 1.8
refers to: BDKRB1 mRNA | -1.57
refers to: WASF1 mRNA | 0.804
refers to: FIGN mRNA | -1.97
refers to: AJM1 mRNA | -0.997
refers to: EXPH5 mRNA | 1.61
refers to: PAFAH1B3 mRNA | -1.14
refers to: TSPYL2 mRNA | 1.75
refers to: TMPO mRNA | -1.79
refers to: EPHA4 mRNA | -1.45
refers to: GOLGA8G mRNA | -2.68

Series 2
SMILES: CC[C@@]1(c2cccc(C(F)(F)F)c2)C2=C(Nc3n[nH]cc31)[C@H](F)C(C)(C)CC2=O (single isomer, unassigned)
Tested at: 1 µM
target | assay | scale | remaining binding [%]
G protein-coupled receptor kinase 4 (GRK4, Homo sapiens, UniProt P32298) | binding, competition with immobilised ligand |  | 100
Inhibitor of nuclear factor kappa-B kinase subunit alpha (CHUK, Homo sapiens, UniProt O15111) | binding, competition with immobilised ligand |  | 100
Interleukin-1 receptor-associated kinase 4 (IRAK4, Homo sapiens, UniProt Q9NWZ3) | binding, competition with immobilised ligand |  | 95
Beta-adrenergic receptor kinase 1 (GRK2, Homo sapiens, UniProt P25098) | binding, competition with immobilised ligand |  | 100
Activin receptor type-2B (ACVR2B, Homo sapiens, UniProt Q13705) | binding, competition with immobilised ligand |  | 100
Serine/threonine-protein kinase 32C (STK32C, Homo sapiens, UniProt Q86UX6) | binding, competition with immobilised ligand |  | 73
5'-AMP-activated protein kinase catalytic subunit alpha-1 (PRKAA1, Homo sapiens, UniProt Q13131) | binding, competition with immobilised ligand |  | 100
Phosphatidylinositol 3-kinase catalytic subunit type 3 (PIK3C3, Homo sapiens, UniProt Q8NEB9) | kinase binding, KINOMEscan | reference: DMSO control | 97
Dual specificity testis-specific protein kinase 1 (TESK1, Homo sapiens, UniProt Q15569) | binding, competition with immobilised ligand |  | 100
Phosphatidylinositol 3-kinase C2 domain-containing subunit gamma (PIK3C2G, Homo sapiens, UniProt O75747) | binding, competition with immobilised ligand |  | 84
NUAK family SNF1-like kinase 2 (NUAK2, Homo sapiens, UniProt Q9H093) | kinase binding, KINOMEscan | reference: DMSO control | 100
Proto-oncogene tyrosine-protein kinase ROS (ROS1, Homo sapiens, UniProt P08922) | binding, competition with immobilised ligand |  | 98
Interferon-induced, double-stranded RNA-activated protein kinase (EIF2AK2, Homo sapiens, UniProt P19525) | kinase binding, KINOMEscan | reference: DMSO control | 81

Series 3
Structure (SMILES): Cc1ccc(O)c(C)c1-c1cnc2[nH]c(-c3cnc(N4CCC5(CC4)CC(N4CCN(c6ccc(N[C@H]7CCC(=O)N(C)C7=O)cc6F)CC4)CO5)nc3)cc2c1C#N (single isomer, unassigned)
Target: Membrane-associated tyrosine- and threonine-specific cdc2-inhibitory kinase (PKMYT1, Homo sapiens, UniProt Q99640)
UniProt Q99640, sequence (whole entry, looked up): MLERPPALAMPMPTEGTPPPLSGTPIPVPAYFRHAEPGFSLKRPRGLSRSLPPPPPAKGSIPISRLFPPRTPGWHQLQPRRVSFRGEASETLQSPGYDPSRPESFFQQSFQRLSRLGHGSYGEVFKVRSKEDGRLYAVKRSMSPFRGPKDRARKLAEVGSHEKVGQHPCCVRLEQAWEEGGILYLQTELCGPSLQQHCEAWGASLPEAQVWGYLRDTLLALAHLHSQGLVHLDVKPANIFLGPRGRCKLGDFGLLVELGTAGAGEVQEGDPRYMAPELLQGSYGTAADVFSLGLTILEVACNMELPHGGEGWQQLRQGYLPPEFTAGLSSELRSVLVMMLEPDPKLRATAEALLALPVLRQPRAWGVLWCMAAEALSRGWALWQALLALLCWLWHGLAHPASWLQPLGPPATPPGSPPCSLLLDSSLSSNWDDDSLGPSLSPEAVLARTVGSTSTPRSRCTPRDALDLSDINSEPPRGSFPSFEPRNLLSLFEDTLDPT
Mode: degrader
Method: automated immunoblot (Jess)
Time: 24 h
conditions | degradation [%]
12.35 nM | 5.47
111.11 nM | 7.6
0.05 nM | 6.08
333.33 nM | 22.8
0.02 nM | 3.17
37.04 nM | 11.3

Series 4
SMILES: Cc1ncsc1-c1ccc(C(CO)NC(=O)C2CC(O)CN2C(=O)C(C(C)C)n2cc(-c3ccc(COc4c(-c5c(C)c(F)cc6[nH]ncc56)c(C5CC5)cc5c(N6CC7CC6CN7)nc(OC6CCOCC6)nc45)cc3)nn2)cc1 (centres unmarked)
KRAS G12D GDP-bound: GTPase KRas, GDP-bound (KRAS, Homo sapiens, UniProt P01116, G12D)
VHL with Elongin B/C: von Hippel-Lindau disease tumor suppressor, with Elongin B/C (VHL, Homo sapiens, UniProt P40337)
target | assay | test system | conditions | koff
KRAS G12D GDP-bound | SPR, multi-cycle | immobilized KRAS G12D | binary, geometric mean | 0.00339 s⁻¹
KRAS G12D GDP-bound | SPR, single-cycle | immobilized KRAS G12D | binary, geometric mean | 0.00343 s⁻¹
VHL with Elongin B/C | SPR, single-cycle | immobilized VCB complex | binary, geometric mean | 0.00205 s⁻¹
KRAS/VHL, GDP-bound (Homo sapiens, UniProt P01116+P40337, G12D) | SPR, single-cycle | immobilized KRAS G12D | ternary, geometric mean, added: VCB complex | 0.000437 s⁻¹
VHL with Elongin B/C | SPR, single-cycle | immobilized VCB complex | binary | 0.00223 s⁻¹ and 0.00211 s⁻¹ and 0.00182 s⁻¹

Repeated from above (series 2):
target | assay | scale | remaining binding [%]
Dual specificity testis-specific protein kinase 1 (TESK1, Homo sapiens, UniProt Q15569) | binding, competition with immobilised ligand |  | 100
Inhibitor of nuclear factor kappa-B kinase subunit alpha (CHUK, Homo sapiens, UniProt O15111) | binding, competition with immobilised ligand |  | 100
